Published values gathered from unrelated publications.
Route: oral

Compound	test	system	setting	quantity	result
CC(C)c1nc(N(C)S(C)(=O)=O)nc(-c2ccc(F)cc2)c1/C=C/[C@@H](O)C[C@@H](O)CC(=O)O	refers to: Nausea	human	10 mg	participants with TEAE	0%
C=CC(=O)NC1CCN(c2ncc3ncnc(Nc4ccc(Oc5ccc6c(c5)ncn6C)c(C)c4)c3n2)CC1		healthy male humans	240 mg	participants with skin lesion TEAE	6.3%
CCCCCCOC(=O)NC(=N)c1ccc(NCc2nc3cc(C(=O)N(CCC(=O)OCC)c4ccccn4)ccc3n2C)cc1	refers to: Contusion	human	75 mg, alone	participants with adverse event	0%
CC(C)c1nc(CN(C)C(=O)N[C@@H](CCN2CCOCC2)C(=O)N[C@H](CC[C@H](Cc2ccccc2)NC(=O)OCc2cncs2)Cc2ccccc2)cs1		human	dose not given	participants with Dizziness	0%
CN1C(=O)[C@@H](NC(=O)c2nnc(Cc3ccccc3)[nH]2)COc2cccnc21	phase I multiple ascending dose	human, male and female	200 mg, 14 days	participants with any TEAE	25%
C=CC(=O)NC1CCN(c2ncc3ncnc(Nc4ccc(Oc5ccc6c(c5)ncn6C)c(C)c4)c3n2)CC1		healthy male humans	dose not given	participants with adverse events	61.5%
O=C(COc1ccc(Cl)cc1)NC12CC(c3nnc([C@H]4C[C@@H](OC(F)(F)F)C4)o3)(C1)C2		human both sexes	45 mg single dose	participants with TEAE	33.3%
COC(=O)N[C@@H](C)CNc1nccc(-c2cn(C(C)C)nc2-c2cc(Cl)cc(NS(C)(=O)=O)c2F)n1		human	dose not given, alone or with diltiazem or posaconazole	participants with drug-related TEAEs	84%
CCn1c(=O)c(-c2cc(NC(=O)Nc3ccccc3)c(F)cc2Br)cc2cnc(NC)cc21	refers to: nervous system disorders	healthy human, matched to moderate hepatic impairment	50 mg single dose	participants with drug-related TEAE	0%
CC(C)c1nc(N(C)S(C)(=O)=O)nc(-c2ccc(F)cc2)c1/C=C/[C@@H](O)C[C@@H](O)CC(=O)O		human	10 mg, alone	participants with TEAEs	8.3%
C[C@H]1O[C@@H](O[C@H]2[C@@H](O)C[C@H](O[C@H]3[C@@H](O)C[C@H](O[C@H]4CC[C@@]5(C)[C@H](CC[C@@H]6[C@@H]5C[C@@H](O)[C@]5(C)[C@@H](C7=CC(=O)OC7)CC[C@]65O)C4)O[C@@H]3C)O[C@@H]2C)C[C@H](O)[C@@H]1O	refers to: Dizziness	human	0.25 mg	participants with TEAE	3.4%
O=C1CC[C@H](N2Cc3cc(N4CCN(CC5CCN(c6ccc([C@@H]7c8ccc(O)cc8CC[C@@H]7c7ccccc7)cc6)CC5)CC4)ccc3C2=O)C(=O)N1		human	200 mg, together with: dabigatran etexilate 75 mg	participants with TEAE hot flush	0%
Cc1ccc(=O)n(-c2ccccc2)c1		human	single dose	participants with TEAEs	20.8%
CCCS(=O)(=O)N[C@H]1C[C@@H](N(C)c2ncnc3[nH]ccc23)C1		healthy human	dose not given, together with: dabigatran etexilate	participants with TEAEs	25%
COC(=O)N[C@H](C(=O)N1CCC[C@H]1c1ncc(-c2cc(F)c3c(c2)O[C@@H](c2cnc(C4CC4)s2)n2c-3cc3cc(-c4cnc([C@@H]5CCCN5C(=O)[C@@H](NC(=O)OC)C(C)C)[nH]4)ccc32)[nH]1)C(C)C		healthy adult humans	180 mg, 6 days	participants with Headache	6.3%
